Assay results collected from several papers.
A part holds a random share of what one study measured.

Sample 1
Target: TAR DNA-binding protein 43, full length, His tag (TARDBP, Homo sapiens, UniProt Q13148, residues 1-414)
Method: RNA Bind-n-Seq
Molecule type: RNA
Medium: in vitro
Concentration: 20 nM
Notes: 6-mer, flanks averaged, single round
Together with: 150 mM LiCl
Reference: input library
Reading: higher = stronger binding
Oligonucleotide | 6-mer enrichment (R)
GUAACG | 0.901
UCGUCA | 0.924
GAAACG | 0.879
UUAUGC | 1.03
UCGUGC | 0.93
CAAAUU | 0.925
CCCUCC | 1.2
GUCAUC | 0.845
GCCCUU | 1.15
GGUCGC | 1
GCUGGA | 0.973
CGCGUU | 0.966
GCGGAC | 1.07
UGACAU | 0.922
UGCCUA | 0.937
CACGGU | 0.891
UACUUA | 0.912
CUACGA | 0.795
CUGGCU | 0.894
UAUAUA | 1.01
CGAUCU | 0.813
GUUCCC | 1.03
ACGCGC | 0.908
CCAAGG | 0.887
UAACGU | 0.887

Sample 2
Target: Probable WRKY transcription factor 33, C-terminal DNA-binding domain (WRKY33, Arabidopsis thaliana, UniProt Q8S8P5, residues 346-449)
Method: DNA-protein interaction ELISA
Molecule type: double-stranded DNA, one strand shown
Medium: in vitro, bacterial lysate
Concentration: not given
Notes: whole dsDNA probe, crude lysate protein
Reference: highest signal in screen
Reading: higher = stronger binding
Construct (chain): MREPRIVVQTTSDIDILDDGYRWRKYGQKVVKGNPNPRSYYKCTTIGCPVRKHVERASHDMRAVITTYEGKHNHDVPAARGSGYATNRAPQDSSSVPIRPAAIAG
Oligonucleotide | relative absorbance
AAAAAATCGGGCCCCGTTAGCACTCTAAAA | 32.8 % of maximum
AAAAAAAAGCGTTACATCATATGGAAAAAA | 27.1 % of maximum
AAAAAACCGTCTTATCTCTCGTCCCTAAAA | 58.1 % of maximum
AAAAAAGATGATTAGTAATTGCGGAAAAAA | 28.9 % of maximum
AAAAAAGTGCACGACCCATTTATATAAAAA | 47.8 % of maximum
AAAAAATAGTACCGCTAATGGCTGACAAAA | 37.5 % of maximum
AAAAAAAGTTCCAGGTCCGATGCTCAAAAA | 62.5 % of maximum
AAAAAAGCCGTGGGTGATGGTCACAGAAAA | 38.4 % of maximum
AAAAAAGGGTTTAGATGTCCTTCAAAAAAA | 28.2 % of maximum
AAAAAACTGGTGTATCTCCTCAATTAAAAA | 34 % of maximum
AAAAAACGTTGAACCTGGGCCTCAACAAAA | 99.6 % of maximum
AAAAAAGGCGGTCGTAGTTGTGGGAGAAAA | 98.9 % of maximum
AAAAAAGCGCGAATTCTAGAACTATAAAAA | 33 % of maximum
AAAAAACTGCTTGCCCCTGTCTCCATAAAA | 42.2 % of maximum
AAAAAACCCGTTCTACCTTATTCCTGAAAA | 39.8 % of maximum
AAAAAAATGCGCCCTTTCTGACATAAAAAA | 34.2 % of maximum
AAAAAACTGTCTGTCCTATATCACTTAAAA | 29.7 % of maximum

Sample 3
Target: Histone acetyltransferase KAT6A, winged helix 1, GST fusion (KAT6A, Homo sapiens, UniProt Q92794, residues 1-85)
Method: protein binding microarray
Molecule type: double-stranded DNA, one strand shown
Medium: in vitro
Concentration: not given
Notes: 8-mer, flanks averaged, mean of 2 arrays, mostly near background
Reference: not given
Reading: higher = stronger binding
Construct (chain): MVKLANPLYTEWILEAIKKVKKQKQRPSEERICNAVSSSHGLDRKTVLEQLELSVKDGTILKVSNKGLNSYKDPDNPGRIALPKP
Oligonucleotide | E-score
CGGCGATA | 0.327
TACCGTAA | 0.199
AATGGACT | -0.26
ACGGAAGA | 0.211
TAAAGGTA | -0.144
CCATGCAG | -0.153
AGAATGGC | -0.254
AGTATGGA | -0.177
TACTTGGA | -0.124
ACGTACAT | -0.121
ATAATTCG | 0.0005
TCCGTACA | 0.216
GAGCCAAA | -0.136
ATTTGCCG | 0.262
GATTTGCC | -0.0914
GCTGATCC | 0.0478
CCTAAAAA | -0.164

Sample 4
Target: Interferon regulatory factor 5, full length, phosphomimetic (IRF5, Homo sapiens, UniProt Q13568-2, residues 1-514, K96S/S451D/S453D/S456D/S462D)
Method: protein-binding microarray
Molecule type: double-stranded DNA, one strand shown
Medium: in vitro
Concentration: 250 nM
Notes: 60-bp whole probe
Together with: salmon DNA 0.4 mg/ml
Reference: random background probes
Reading: higher = stronger binding
Shared flanks, not repeated: GCCTAGCAC … GTCTTGATTCGCTTGACGCTGCTG
Oligonucleotide | log fluorescence [z-score]
TTAGATATCGGGTTTCGTTTAGTGCTA | 5.81
TTAGAACTGGGGACTGAATTAGTGCTA | -0.101
TTAGGACTGGGTCTCCGTTAGTGCTAG | -0.481
TCAGGTCTCCTTTTCCTTTAGTGCTAG | 0.358
TTAGGACTGCTTATTCTTTAGTGCTAG | 0.161
GACGGTCACGGTATCGGGACGTGCTAG | 0.437
TCAGCTCTAGGTTCTCTGAAGGTGCTA | -0.438
GACCGACTGGGGTTTCGGGACGTGCTA | 1.45
TTAGCACTGGGTTTCGGTTAGTGCTAG | 8.28
TCAGTTTTCCTTCATGTACTGTGCTAG | 0.985
TCACACTTCCTTCTGCCACTGTGCTAG | 0.403
AACGAACTGGGGACTGGAGACGTGCTA | -0.233
GACGTTATCGGACTGGGGACGTGCTAG | 0.75
TTAGATATCAGTCTCGGTTAGTGCTAG | 2.03
TCATTTCTACTTCTGTTACTGTGCTAG | 1.83
GACGGTTTCGACACTGAGGACGTGCTA | 4.9
TCATCTTCCTTCATGGCACTGTGCTAG | 0.565
AGATCCATGCTCTGTCGCAGGGTGCTA | -0.58
TCAGGACTCGGGTCTCCCACTGTGCTA | -0.753
TCACTCTTCTTGCATCTGACTGTGCTA | 0.886
GTCGATATCGGGTATCGAGACGTGCTA | 4.19
GGTTTTTTTTTAATTGAAATGTGCTAG | 0.786
TTAGGACAGGGTTTCGGTTAGTGCTAG | 7.07
GACGGACTGGATTTTCGGGACGTGCTA | 0.77

Sample 5
Target: Ras GTPase-activating protein-binding protein 1, RRM domain (G3BP1, Homo sapiens, UniProt Q13283)
Chain of UniProt Q13283 (whole entry, looked up): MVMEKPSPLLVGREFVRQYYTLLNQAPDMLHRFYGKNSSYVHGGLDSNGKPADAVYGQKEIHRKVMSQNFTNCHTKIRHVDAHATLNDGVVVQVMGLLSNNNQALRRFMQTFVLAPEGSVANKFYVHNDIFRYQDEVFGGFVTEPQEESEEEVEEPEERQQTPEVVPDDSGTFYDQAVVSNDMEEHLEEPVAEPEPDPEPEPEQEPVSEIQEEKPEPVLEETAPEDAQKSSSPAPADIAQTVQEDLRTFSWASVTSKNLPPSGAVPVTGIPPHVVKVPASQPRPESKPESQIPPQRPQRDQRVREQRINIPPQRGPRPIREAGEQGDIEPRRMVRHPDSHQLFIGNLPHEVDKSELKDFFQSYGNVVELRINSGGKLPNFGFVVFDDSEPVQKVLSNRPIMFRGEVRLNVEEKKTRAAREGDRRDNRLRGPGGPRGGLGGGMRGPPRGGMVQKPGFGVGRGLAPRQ
Method: RNA Bind-n-Seq
Molecule type: RNA
Medium: in vitro
Concentration: 1 µM
Notes: whole 134-nt RNA, ends assumed
Together with: 150 mM KCl
Reference: input library
Reading: higher = stronger binding
Shared flanks, not repeated: GGGAGUUCUACAGUCCGACGAUC … UGGAAUUCUCGGGUGUCAAGG
Oligonucleotide | log2 enrichment
CACAGACAACAAAAACCCACACAGACACAGAGGGAAGGGGUUGGGAUGGGGACAGGGUGCACAGCAGGGCGGGGUAGGACCCCAGCCCCU | -0.104
UGGCCCUGGUGGCAUGCGGGGGGGAAGAGGUGGCCUCAUGGAUCGUGGUGGUCCCGGUGGAAUGUUCAGAGGUGGCCGUGGUGGAGACAG | 0.891
UUUUACAACCCCAAUUUAAAGAAAGUUGUAGAGGCCCACAAGAUCGUUCUCUGCGCUGUAAGCCAUGUUUUCAUGCUGCUUUUCAAUGUG | -0.248
UGGCCCUGGUGGCAUGCGGGGAGGAAGUGGUGGCCUCAUGGAUCGUGGUGGUCCCGGUGGAAUGUUCAGAGGUGGCCGUGGUGGAGACAG | 0.698
CAAGUCCUGUGCUACACAUCGUAUGUACCGAAUCGGCCCGGGCCCGGGGCCCGGGGAAAGUAUUAUGUUACGCCGUUCGGAUCUGCACUU | -0.758
CAAGUCCUGUGCUACACAUCGUAUGUACCGAAUCGGAAAAAGGUUUUUGGAAAGGAAAGUAUUAUGUUACGCCGUUCGGAUCUGCACUUC | -0.318
ACCAUGCAGGUGGGCAUCUUUGGGAAGUGGGGCAAGGGGGGGAUAGGGAGGGGGGUAACACUUUGGGAACAGGUGGUCCCAAAACGUUUC | -0.422
UCCUCAAGUCCUGUGCUACACAUCGUAUGUACCGAAUCGGCGGGCGGCGGGAAAGUAUUAUGUUACGCCGUUCGGAUCUGCACUUCCAGC | -0.162
UGGGAGGUGGAUUUUGUUUAUUAUUUUAGCUCAUUUCCAGGGGUGGGAAUUUUUUUUUAAUAUGUGUCAUGAAUAAAGUUGUUUUUGAAA | 1.45
ACCAUGCAGGUGGGCAUCUUUGGGAAGUGGGGCAAGGGGGGGAUAAGGAGGGGGGUAACACUUUGGGAACAGGUGGUCCCAGGUCGUUUC | 0.873

Excerpt of the above (sample 3):
Oligonucleotide | E-score
TACTTGGA | -0.124
ACGTACAT | -0.121
ATAATTCG | 0.0005
TCCGTACA | 0.216
GAGCCAAA | -0.136
ATTTGCCG | 0.262
GATTTGCC | -0.0914
